Experimental data of several laboratories.
Each line is one published result; not all experiments were run side by side. ± marks the error that the study gave.

NNCC1=C(O)C(=O)c2ccccc2C1=O — median lethal concentration (BGM (monkey kidney); MTT; 10% FCS; 24 h): 257 µM
CC(=O)Nc1ccc(/C=N/NC(=S)Nc2cccc3cccnc23)cc1 — highest non-cytotoxic concentration (CHO; resazurin; 48 h, 10% FBS): > 200 µg/mL
N=C(N)NCCC[C@@H](NC(=O)[C@H](N)Cc1c[nH]c2ccccc12)C(=O)N[C@H](CCCCN)C(=O)N[C@H](Cc1c[nH]c2ccccc12)C(=O)N[C@H](CCCNC(=N)N)C(=O)N[C@H](CCCCN)C(=O)N[C@H](Cc1c[nH]c2ccccc12)C(=O)N[C@H](CCCNC(=N)N)C(=O)N[C@H](CCCCN)C(=O)N[C@H](Cc1c[nH]c2ccccc12)C(=O)N[C@H](CCCNC(=N)N)C(=O)N[C@H](CCCCN)C(N)=O — hemolysis (mouse red blood cells; 2048 µM): < 5%
CC[C@H](C)[C@H](NC(=O)[C@H](Cc1ccccc1)NC(=O)[C@H](CC(N)=O)NC(=O)[C@H](CCCCN)NC(=O)[C@H](C)NC(=O)[C@@H](NC(=O)[C@H](C)NC(=O)[C@H](Cc1ccccc1)NC(=O)[C@H](C)NC(=O)[C@H](C)NC(=O)[C@H](CCCCN)NC(=O)CNC(=O)[C@@H](NC(=O)[C@H](CCCCN)NC(=O)[C@H](CCCCN)NC(=O)[C@H](C)NC(=O)[C@@H](NC(=O)[C@H](CC(=O)O)NC(=O)[C@H](CC(C)C)NC(=O)[C@H](Cc1c[nH]c2ccccc12)NC(=O)CN)C(C)C)[C@@H](C)CC)C(C)C)C(=O)O — hemolysis (erythrocytes; 250 µg/mL, 1 h; baseline: Triton X-100 1%): 100%
COc1ccnc(Nc2c3c(nc4cc(C)ccc24)CCCC3)c1 — inhibition (HepG2; MTT; 50 µM, 24 h, 10% FBS): -9.57 ± 0.28%
CC(=O)Oc1ccc(Cn2cc(C)c(=O)[nH]c2=O)cc1C1OC(c2ccccc2)=NN1C(C)=O (stereo not drawn) — minimum cytotoxic concentration (HEL fibroblasts; cell morphology alteration): ≥ 20 µM
c1ccc2nc(Nc3c4c(nc5ccccc35)CCCC4)ccc2c1 — inhibition (HepG2; MTT; 50 µM, 24 h, 10% FBS): 0.83 ± 0.12%
CCCCn1cc(C(=O)O)c(=O)c2cc(F)c(Nc3ccccc3Cl)c([N+](=O)[O-])c21 — IC50 (SW-620; cell growth, SRB; 72 h): 118 ± 22.2 µg/mL
O=C(O[C@@H]1Cc2c(O)cc(O)cc2O[C@@H]1c1cc(O)c(O)c(O)c1)c1cc(O)c(O)c(O)c1 — cell death (U-87 MG; CCK-8; 50 µM, 24 h): 39.1%
CC(C)C[C@@H]1NC(=O)[C@@H](Cc2c[nH]c3ccccc23)NC(=O)[C@H](CCCCN)NC(=O)[C@@H](Cc2c[nH]cn2)NC(=O)[C@H](CO)NC(=O)[C@@H](Cc2c[nH]cn2)NC(=O)[C@H](CCCCN)NC(=O)[C@@H](Cc2c[nH]c3ccccc23)NC1=O — HD50 (erythrocytes; hemolysis): 145 µM
O=C(CCCc1ccc2c(c1)CCCC2)N[C@@H]1O[C@H](CO)[C@@H](O)[C@H](O)[C@H]1O — minimal cytotoxic concentration (HEL fibroblasts; cell morphology; 3 days): > 100 µM
CC(=O)Oc1ccc(Cn2cc(F)c(=O)[nH]c2=O)cc1C1OC(c2ccc(Cl)cc2)=NN1C(C)=O (stereo not drawn) — minimum cytotoxic concentration (HEL fibroblasts; cell morphology alteration): 100 µM
CCCCn1cc(C(=O)O)c(=O)c2cc(F)c(Nc3cccc(Cl)c3)c(N)c21 — IC50 (HCT-116; cell growth, SRB; 72 h): 0.34 ± 0.04 µg/mL
CCCCCC1CCCCCCC(=O)CCC(=O)OCC2OC(OC3C(O1)OC(C)C(OC(C)=O)C3O)C(O)C(OC(=O)C(C)CC)C2OC(=O)C=Cc1ccccc1 (mixture of isomers) — IC50 (MDA-MB-231; cytotoxicity): 429 nM
Cc1ccc(/C=C/C(=O)O)cc1-c1cc2c(cc1C)C(C)(C)CCC2(C)C — lowest effective concentration (TK6; cytotoxicity, GreenScreen; without S9): 1.33 µg/mL
C=Cc1c(C)c2cc3nc(c(CC(=O)O)c4[nH]c(cc5nc(cc1[nH]2)C(C)=C5CC)c(C)c4C(=O)O)[C@@H](CCC(=O)NCCCC[C@H](NC(C)=O)C(=O)N[C@@H](Cc1ccccc1)C(=O)N[C@@H](Cc1ccccc1)C(=O)N[C@H](C(=O)N[C@@H](CC(C)C)C(=O)N[C@@H](CCCCN)C(=O)N[C@@H](CO)C(=O)NCC(=O)N[C@@H](CCC(N)=O)C(=O)NCC(=O)N[C@@H](Cc1ccc(O)cc1)C(=O)N[C@@H](CCCNC(=N)N)C(=O)N[C@@H](Cc1c[nH]c2ccccc12)C(=O)N[C@@H](CC(=O)O)C(=O)N[C@@H](CO)C(=O)N[C@@H](Cc1ccc(O)cc1)C(=O)N[C@@H](CCCNC(=N)N)C(=O)N[C@@H](Cc1c[nH]c2ccccc12)C(=O)N[C@@H](Cc1c[nH]cn1)C(=O)N1CCC[C@H]1C(=O)N[C@@H](CO)C(=O)N[C@@H](CS)C(=O)N[C@@H](C)C(=O)N[C@@H](CS)C(=O)NCC(=O)NCC(=O)N[C@@H](CO)C(=O)N[C@@H](CCCCN)C(N)=O)C(C)C)[C@@H]3C — cytotoxicity (LLC; CCK-8; 1 to 200 µM, 24 h): not toxic
CCc1ccc([C@H](C)CC(=O)NC(=O)N[C@@H]2O[C@H](CO)[C@@H](O)[C@H](O)[C@H]2O)cc1 — minimal cytotoxic concentration (HEL fibroblasts; cell morphology; 3 days): > 100 µM
CC(NC(=O)C(Cc1ccccc1)NC(=O)OCc1ccccc1)C(=O)CF (stereo not drawn) — cytotoxicity (Vero E6; concentration not given): 0%
COc1ccccc1N(C)C(=O)Oc1cc2oc3cc4c(c(O)c3c(=O)c2c(CC=C(C)C)c1OC)C=CC(C)(C)O4 — inhibition (PC-12; cell proliferation, MTT; 10 µM, 24 h): 7.4%
COC(=O)[C@]1(C)CCC[C@]2(C)[C@H]3C[C@H]4C(C(C)C)=C[C@]3(CC[C@H]21)[C@H]1[C@@H]4[C@@H](OCC#CCN2CCOCC2)CC[C@@H]1O — viability (BHK-21-hACE2; 20.0 µM, 48 (unit not given)): 117%
CC(=O)Oc1ccc(Cn2nc(C)c(=O)[nH]c2=O)cc1C1OC(c2cccc(Cl)c2)=NN1C(C)=O (stereo not drawn) — minimum cytotoxic concentration (HEL fibroblasts; cell morphology alteration): 100 µM
COCc1cc(C)nc(SCC[N+](C)(C)CC(=O)Nc2cccc(C(F)(F)F)c2)c1C#N — cytotoxicity (PC-12; MTS; 10 µM, 48 h): not toxic
CCCCn1cc(C(=O)O)c(=O)c2cc(F)c(Nc3ccccc3Cl)c(N)c21 — IC50 (HCT-116; cell growth, SRB; 72 h): 42.8 ± 1.26 µg/mL
CC(=O)OC[C@H]1O[C@@H](NC(=O)/C=C/c2ccc(-c3ccccc3)cc2)[C@H](OC(C)=O)[C@@H](OC(C)=O)[C@@H]1OC(C)=O — minimal cytotoxic concentration (HEL fibroblasts; cell morphology; 3 days): > 100 µM
N=C(N)NCCC[C@@H]1NC(=O)[C@H](Cc2csc3ccccc23)NC(=O)[C@@H](Cc2ccccc2)NC(=O)[C@H](Cc2ccccc2)NC(=O)[C@H](CCC(=O)NCCOCCOCC(=O)N[C@@H](CCCCNC(=O)c2ccc3c(c2)C(=O)OC32c3ccc4cc(O)ccc4c3Oc3c2ccc2cc(O)ccc32)C(N)=O)NC(=O)[C@@H](CCCNC(=N)N)NC(=O)[C@H](CCCNC(=N)N)NC(=O)[C@@H](CCCNC(=N)N)NC1=O — cytosolic entry (HeLa; cell penetration, flow cytometry; 2.0 µM, 2 h, 1% FBS; baseline: CPP12): 116 ± 5%
CCCCn1cc(C(=O)O)c(=O)c2cc(F)c3c(nnn3-c3ccccc3Cl)c21 — IC50 (SW-620; cell growth, SRB; 72 h): 48.4 ± 0.44 µg/mL
COc1cccc(N(C)C(=O)Oc2cc3oc4cc5c(c(O)c4c(=O)c3c(CC=C(C)C)c2OC)C=CC(C)(C)O5)c1 — inhibition (PC-12; cell proliferation, MTT; 10 µM, 24 h): 0%
CC(C)(CO)NCC1=C(O)C(=O)c2ccccc2C1=O — median lethal concentration (BGM (monkey kidney); MTT; 10% FCS; 24 h): 322 ± 28.3 µM
Cc1ccnc(Nc2c3c(nc4cc(C)ccc24)CCCC3)c1 — inhibition (HepG2; MTT; 50 µM, 24 h, 10% FBS): -30.9 ± 1.16%
CC(=O)OC[C@H]1O[C@@H](NC(=O)/C=C/c2ccc(C(C)C)cc2)[C@H](OC(C)=O)[C@@H](OC(C)=O)[C@@H]1OC(C)=O — minimal cytotoxic concentration (HEL fibroblasts; cell morphology; 3 days): > 100 µM

Excerpt of the above:
CCCCCC1CCCCCCC(=O)CCC(=O)OCC2OC(OC3C(O1)OC(C)C(OC(C)=O)C3O)C(O)C(OC(=O)C(C)CC)C2OC(=O)C=Cc1ccccc1 (mixture of isomers) — IC50 (MDA-MB-231; cytotoxicity): 429 nM
Cc1ccc(/C=C/C(=O)O)cc1-c1cc2c(cc1C)C(C)(C)CCC2(C)C — lowest effective concentration (TK6; cytotoxicity, GreenScreen; without S9): 1.33 µg/mL
C=Cc1c(C)c2cc3nc(c(CC(=O)O)c4[nH]c(cc5nc(cc1[nH]2)C(C)=C5CC)c(C)c4C(=O)O)[C@@H](CCC(=O)NCCCC[C@H](NC(C)=O)C(=O)N[C@@H](Cc1ccccc1)C(=O)N[C@@H](Cc1ccccc1)C(=O)N[C@H](C(=O)N[C@@H](CC(C)C)C(=O)N[C@@H](CCCCN)C(=O)N[C@@H](CO)C(=O)NCC(=O)N[C@@H](CCC(N)=O)C(=O)NCC(=O)N[C@@H](Cc1ccc(O)cc1)C(=O)N[C@@H](CCCNC(=N)N)C(=O)N[C@@H](Cc1c[nH]c2ccccc12)C(=O)N[C@@H](CC(=O)O)C(=O)N[C@@H](CO)C(=O)N[C@@H](Cc1ccc(O)cc1)C(=O)N[C@@H](CCCNC(=N)N)C(=O)N[C@@H](Cc1c[nH]c2ccccc12)C(=O)N[C@@H](Cc1c[nH]cn1)C(=O)N1CCC[C@H]1C(=O)N[C@@H](CO)C(=O)N[C@@H](CS)C(=O)N[C@@H](C)C(=O)N[C@@H](CS)C(=O)NCC(=O)NCC(=O)N[C@@H](CO)C(=O)N[C@@H](CCCCN)C(N)=O)C(C)C)[C@@H]3C — cytotoxicity (LLC; CCK-8; 1 to 200 µM, 24 h): not toxic
CCc1ccc([C@H](C)CC(=O)NC(=O)N[C@@H]2O[C@H](CO)[C@@H](O)[C@H](O)[C@H]2O)cc1 — minimal cytotoxic concentration (HEL fibroblasts; cell morphology; 3 days): > 100 µM
